Results collected from several papers.
A part holds a random share of what one study measured. Positions count from the first letter of the parent shown.

Study 1 — technique: RNA Bind-n-Seq; molecule type: RNA; sample: in vitro; concentration: 200 nM; setting: whole 134-nt RNA, ends assumed; with: 150 mM LiCl; reference: input library; reading: higher = stronger binding; quantity: log2 enrichment; each molecule: 7-deaza-guanosine replaces G
Target: Ras GTPase-activating protein-binding protein 1, full length (G3BP1, Homo sapiens, UniProt Q13283)
UniProt Q13283, sequence (whole entry, looked up): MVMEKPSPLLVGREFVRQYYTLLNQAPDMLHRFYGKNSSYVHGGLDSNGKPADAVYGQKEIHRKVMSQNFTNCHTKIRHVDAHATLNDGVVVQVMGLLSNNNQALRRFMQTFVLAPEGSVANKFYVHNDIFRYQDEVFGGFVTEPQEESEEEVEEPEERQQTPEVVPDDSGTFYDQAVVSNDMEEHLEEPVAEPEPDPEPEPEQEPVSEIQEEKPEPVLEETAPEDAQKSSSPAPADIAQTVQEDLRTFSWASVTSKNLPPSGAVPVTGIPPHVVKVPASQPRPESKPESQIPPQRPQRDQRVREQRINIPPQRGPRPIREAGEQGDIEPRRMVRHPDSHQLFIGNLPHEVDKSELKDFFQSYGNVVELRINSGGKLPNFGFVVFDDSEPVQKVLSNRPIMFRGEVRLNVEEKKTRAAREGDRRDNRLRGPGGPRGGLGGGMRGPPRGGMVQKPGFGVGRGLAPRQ
All sequences stand within: GGGAGUUCUACAGUCCGACGAUC … UGGAAUUCUCGGGUGUCAAGG
Oligonucleotide = ACCAUGCAGGUGGGCAUCUUUGGGAAGUGAAACAAGGGGGGGAUAGGGAGGGGGGUAACACUUUGGGAACAGGUGGUCCCAGGUCGUUUC; value = 0.551
Oligonucleotide = AAGUCCUGUGCUACACAUCGUAUGUACCGAAUCGGGGCCCCGGCCCCGGCCCCGGGAAAGUAUUAUGUUACGCCGUUCGGAUCUGCACUU; value = -1.83
Oligonucleotide = UCAAGUCCUGUGCUACACAUCGUAUGUACCGAAUCGGAAAGGGGAAAGGAAAGGAAAGUAUUAUGUUACGCCGUUCGGAUCUGCACUUCC; value = -0.394
Oligonucleotide = CAAGUCCUGUGCUACACAUCGUAUGUACCGAAUCGGGCCCGGGGCCCGGGCCCGGAAAGUAUUAUGUUACGCCGUUCGGAUCUGCACUUC; value = -1.49
Oligonucleotide = ACCAUGCAGGUGGGCAUCUUUGGGAAGUGGGGCAAGGGGGGGAUAGGGAGGGGGGUAACACUUUGGGAACAGGUGGCCCCAGGUCGUUUC; value = 0.224
Oligonucleotide = UAACUUUAGAGGAGGAUCUGAUGGAUAUGGCAGUGGACGUGGAUUUGGGGAUGGCUAUAAUGGGUAUGGAGGAGGACCUUGAGGUGGCAA; value = -0.0845
Oligonucleotide = AAGUCCUGUGCUACACAUCGUAUGUACCGAAUCGGAAAAAGGAAAAAGGUUUUUGGAAAGUAUUAUGUUACGCCGUUCGGAUCUGCACUU; value = -1.74
Oligonucleotide = AAGUCCUGUGCUACACAUCGUAUGUACCGAAUCGGGAAAAAGGGAAAGGGAAAGGGAAAGUAUUAUGUUACGCCGUUCGGAUCUGCACUU; value = -0.00596
Oligonucleotide = GUCCUGUGCUACACAUCGUAUGUACCGAAUCGGCCCCCCGGGCCCCCCGGCCCCCCGGAAAGUAUUAUGUUACGCCGUUCGGAUCUGCAC; value = 0.0339
Oligonucleotide = UGGGAGGUGGAUUUUGUUUAUUUUUUUAGCUCAUUUCCAGGGGUGGAAAUUUUUUUUUAAUAUGUGUCAUGAAUAAAGUUGUUUUUGAAA; value = -0.0241
Oligonucleotide = GCAGGAAGUAAAAACAUAUGGAAAUGCUUCGGAUAGUGGCAGGGGUGGGGGUUGCUAAGGAAAGGGUGGGAUGGGAGUGGGUAAAGAGUU; value = -0.11

Study 2 — target: CCNA1, cyclin fold, Cln2 fusion (human); technique: yeast growth competition, sequencing; sample: yeast; setting: weak parent motif; reference: not given; reading: higher = stronger binding; quantity: normalised enrichment score
Parent: PKN2 docking peptide (human); VSAVRKLDFSDTM
Variant = VSAVWKLDFSDTM [R5W]; value = 0.0222
Variant = VSAMRKLDFSDTM [V4M]; value = 0.783
Variant = VSAVRKLDFSETM [D11E]; value = 0.921
Variant = VSAVRNLDFSDTM [K6N]; value = 0.198
Variant = VSAVRKLDFNDTM [S10N]; value = 0.77
Variant = VSRVRKLDFSDTM [A3R]; value = 0.328
Variant = VSATRKLDFSDTM [V4T]; value = 0.814
Variant = VSCVRKLDFSDTM [A3C]; value = 1.31
Variant = VSAVRKLGFSDTM [D8G]; value = 0.172
Variant = VSAVRKLDFSDHM [T12H]; value = 0.796
Variant = VSAVRKLDFSMTM [D11M]; value = 0.49
Variant = VSAVSKLDFSDTM [R5S]; value = 0.113
Variant = VSAVRKLEFSDTM [D8E]; value = 0.638
Variant = VSAVRKLDFSQTM [D11Q]; value = 0.882
Variant = VSAVRKHDFSDTM [L7H]; value = 0.241
Variant = VSAVNKLDFSDTM [R5N]; value = -0.135
Variant = VSAVLKLDFSDTM [R5L]; value = -0.0662
Variant = VSAVRYLDFSDTM [K6Y]; value = 0.48
Variant = VSADRKLDFSDTM [V4D]; value = -0.015
Variant = VSAVRKLTFSDTM [D8T]; value = 0.152
Variant = VSAVRKLKFSDTM [D8K]; value = 0.62
Variant = VSAVRKTDFSDTM [L7T]; value = 0.33
Variant = VSAVRKLDFSHTM [D11H]; value = 0.724
Variant = VCAVRKLDFSDTM [S2C]; value = 0.845
Variant = VSAPRKLDFSDTM [V4P]; value = 0.418

Study 3 — technique: DHFR PCA, deep sequencing; sample: yeast; with: (+)-ABA 58 µM; reference: wild-type fitted maximum; reading: higher = stronger binding; quantity: relative binding score
Target: ABI1, truncated, D143A, DHFR fusion (Arabidopsis thaliana)
Setting: methotrexate growth selection, single substitutions
Parent: PYL1, truncated, DHFR fusion (Arabidopsis thaliana); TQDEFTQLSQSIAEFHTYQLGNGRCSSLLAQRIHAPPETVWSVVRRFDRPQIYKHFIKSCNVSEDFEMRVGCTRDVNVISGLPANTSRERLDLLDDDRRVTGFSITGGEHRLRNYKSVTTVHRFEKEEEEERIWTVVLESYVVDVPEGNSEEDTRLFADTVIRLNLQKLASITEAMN
Variant = Q10F; value = 55.6%
Variant = D97T; value = 92.9%
Variant = T154N; value = -11.9%
Variant = C72L; value = 65.6%
Variant = L164S; value = 85%
Variant = K116D; value = -3.69%
Variant = L29Y; value = 28.1%
Variant = S80K; value = 37.9%
Variant = S117P; value = 12%
Variant = N85L; value = 83.5%
Variant = Q10M; value = 73.3%
Variant = P37K; value = 4.03%
Variant = E147R; value = 73.6%
Variant = P83H; value = 8.75%
Variant = A13Q; value = 91.6%
Variant = A30Q; value = 80.6%
Variant = V70K; value = 63.6%
Variant = D153G; value = 17.5%
Variant = P146W; value = 4.45%
Variant = A84G; value = 78.8%
Variant = L169W; value = 1.45%
Variant = E131R; value = 93.8%
Variant = S80W; value = 20.2%
Variant = G148R; value = 55%
Variant = V142W; value = 34.7%

Study 4 — target: NFE2, bZIP domain (human); technique: DHFR protein complementation; sample: yeast; reference: wild-type JUN-FOS pair; reading: higher = stronger binding; quantity: binding fitness
Setting: single substitutions, most at no-binding floor
Parent: JUN, bZIP domain (human); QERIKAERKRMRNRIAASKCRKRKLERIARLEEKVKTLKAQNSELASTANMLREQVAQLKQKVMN; partner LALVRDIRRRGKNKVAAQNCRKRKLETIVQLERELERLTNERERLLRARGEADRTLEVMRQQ
Variant = K36G; value = -1.49 natural log
Variant = R30A; value = -1.31 natural log
Variant = K36W; value = -1.48 natural log
Variant = A57W; value = -1.43 natural log
Variant = A46T; value = -1.24 natural log
Variant = S43E; value = -1.5 natural log
Variant = E54G; value = -1.45 natural log
Variant = T48G; value = -1.45 natural log
Variant = L52D; value = -1.49 natural log
Variant = K39R; value = -1.41 natural log
Variant = L52P; value = -1.5 natural log
Variant = L38V; value = -1.28 natural log
Variant = L31R; value = -1.38 natural log
Variant = V56G; value = -1.51 natural log
Variant = S47N; value = -1.53 natural log
Variant = K34P; value = -1.53 natural log
Variant = A57S; value = -1.52 natural log
Variant = A46R; value = -1.37 natural log
Variant = E32F; value = -1.56 natural log

Study 5 — technique: protein-binding microarray; molecule type: double-stranded DNA, one strand shown; sample: in vitro; concentration: 2200 nM top; setting: 60-bp whole probe; with: salmon DNA 0.4 mg/ml; reference: random background probes; reading: higher = stronger binding; quantity: fitted relative affinity; all sequences stand within: GCCTAGCAC … GTCTTGATTCGCTTGACGCTGCTG
Target: Interferon regulatory factor 7, full length, phosphomimetic (IRF7, Homo sapiens, UniProt Q92985, residues 1-503, S471D/S472D/S475D/S476D/S477D/S483D/S484D/S487D)
UniProt Q92985, sequence (whole entry, unmodified, looked up): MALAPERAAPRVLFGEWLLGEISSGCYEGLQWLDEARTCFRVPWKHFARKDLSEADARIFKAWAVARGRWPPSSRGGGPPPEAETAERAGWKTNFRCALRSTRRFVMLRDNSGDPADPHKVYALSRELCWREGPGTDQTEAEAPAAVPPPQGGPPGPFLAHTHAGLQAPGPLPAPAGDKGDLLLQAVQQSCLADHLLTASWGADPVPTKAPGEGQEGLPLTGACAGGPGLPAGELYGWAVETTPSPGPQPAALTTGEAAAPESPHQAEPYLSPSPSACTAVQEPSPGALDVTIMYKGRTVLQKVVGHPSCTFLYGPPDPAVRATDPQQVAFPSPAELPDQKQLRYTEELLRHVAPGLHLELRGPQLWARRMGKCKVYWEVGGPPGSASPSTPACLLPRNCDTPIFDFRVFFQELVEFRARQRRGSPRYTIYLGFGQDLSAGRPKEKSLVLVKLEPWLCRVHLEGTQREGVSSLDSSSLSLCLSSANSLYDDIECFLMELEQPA
Oligonucleotide = GTGTGTGTCTGATTATTTACGTGCTAG; value = 1.24 z-score
Oligonucleotide = GACGGTATGGACACTGGGGACGTGCTA; value = -0.567 z-score
Oligonucleotide = TCATTCATGAAATTTTAAACTGTGCTA; value = -0.145 z-score
Oligonucleotide = ATTTAAGTTTCACTCTGCATGGTGCTA; value = 3.98 z-score
Oligonucleotide = GACGGACTGGGGTTTCGGCACGTGCTA; value = -0.389 z-score
Oligonucleotide = TTAGGACTGGACGATCGGTTAGTGCTA; value = -0.437 z-score
Oligonucleotide = TCATTTTTTTTTTTACTACTGTGCTAG; value = 2.07 z-score
Oligonucleotide = GACGGTAGCCTACTGCTGACGTGCTAG; value = -0.583 z-score
Oligonucleotide = CCAGGGCTGCCAGCCTCCTCGTGCTAG; value = -1.5 z-score
Oligonucleotide = GACGGTTTCGTTATCGGGACGTGCTAG; value = 6.76 z-score
Oligonucleotide = GACGATATCAGAATGGAGACGTGCTAG; value = -0.282 z-score
Oligonucleotide = TTAGGTCTCCTTTTCCGTTAGTGCTAG; value = 2.06 z-score
Oligonucleotide = GACGATTTCGGGTATCGTGACGTGCTA; value = 2.86 z-score

Study 6 — technique: universal PBM; molecule type: double-stranded DNA, one strand shown; sample: in vitro; concentration: 600 nM; reading: higher = stronger binding; quantity: E-score
Target: Sal-like protein 4, full length isoform A (SALL4, Homo sapiens, UniProt Q9UJQ4, residues 1-1053)
UniProt Q9UJQ4, sequence (whole entry, looked up): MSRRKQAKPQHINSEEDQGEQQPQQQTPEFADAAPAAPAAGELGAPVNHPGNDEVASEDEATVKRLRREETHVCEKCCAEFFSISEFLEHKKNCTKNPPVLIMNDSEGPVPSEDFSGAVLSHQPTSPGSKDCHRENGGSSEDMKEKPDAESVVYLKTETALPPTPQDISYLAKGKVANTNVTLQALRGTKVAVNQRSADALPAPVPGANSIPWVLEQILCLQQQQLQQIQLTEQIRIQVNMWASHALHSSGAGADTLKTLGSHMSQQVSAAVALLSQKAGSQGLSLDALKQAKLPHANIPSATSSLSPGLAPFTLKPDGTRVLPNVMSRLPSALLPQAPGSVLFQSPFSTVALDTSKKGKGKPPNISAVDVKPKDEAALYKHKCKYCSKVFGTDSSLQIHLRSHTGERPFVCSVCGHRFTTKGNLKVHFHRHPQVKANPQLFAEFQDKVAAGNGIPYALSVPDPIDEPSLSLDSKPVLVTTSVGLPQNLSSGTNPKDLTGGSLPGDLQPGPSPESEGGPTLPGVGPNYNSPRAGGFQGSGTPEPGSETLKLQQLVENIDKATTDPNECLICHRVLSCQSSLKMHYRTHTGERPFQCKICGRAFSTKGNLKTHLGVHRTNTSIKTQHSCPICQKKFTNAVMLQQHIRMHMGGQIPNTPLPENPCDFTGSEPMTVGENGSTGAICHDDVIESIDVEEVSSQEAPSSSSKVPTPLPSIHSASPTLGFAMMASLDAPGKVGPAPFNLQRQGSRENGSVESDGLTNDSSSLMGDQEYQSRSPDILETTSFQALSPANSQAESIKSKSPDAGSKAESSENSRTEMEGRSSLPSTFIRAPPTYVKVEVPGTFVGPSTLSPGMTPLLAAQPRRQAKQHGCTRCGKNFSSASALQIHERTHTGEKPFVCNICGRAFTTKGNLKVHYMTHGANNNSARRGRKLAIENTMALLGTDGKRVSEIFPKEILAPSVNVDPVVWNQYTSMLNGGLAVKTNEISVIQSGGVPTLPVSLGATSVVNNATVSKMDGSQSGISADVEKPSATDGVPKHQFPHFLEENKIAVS
Setting: 8-mer, flanks averaged, mean of replicates
Oligonucleotide = CCGGGTAA; value = -0.195
Oligonucleotide = GACCCGCA; value = -0.243
Oligonucleotide = CCGATGTA; value = -0.0736
Oligonucleotide = CGTAGTGA; value = -0.187
Oligonucleotide = GACGAAGA; value = 0.00507
Oligonucleotide = CAACAAAG; value = 0.0227
Oligonucleotide = CTCAGAGA; value = -0.158
Oligonucleotide = CACAGCTA; value = -0.0377
Oligonucleotide = AACGCCGT; value = -0.144
Oligonucleotide = GGCCGTAA; value = -0.152
Oligonucleotide = ACGGTTAC; value = 0.0181
Oligonucleotide = ACTCCCAC; value = -0.212
Oligonucleotide = GGACGGCC; value = -0.342
Oligonucleotide = CCCGTTAA; value = -0.106
Oligonucleotide = CCCGGGTA; value = -0.322
Oligonucleotide = ACGCGCAA; value = -0.0231
Oligonucleotide = GACGATGA; value = 0.0609
Oligonucleotide = ACAACCAA; value = 0.0465
Oligonucleotide = GCTAGATA; value = 0.136
Oligonucleotide = AACAGCTA; value = 0.0667

Study 7 — technique: protein binding microarray; molecule type: double-stranded DNA, one strand shown; sample: in vitro; concentration: not given; reference: not given; reading: higher = stronger binding; quantity: E-score
Target: Histone acetyltransferase KAT6A, winged helix 2, GST fusion (KAT6A, Homo sapiens, UniProt Q92794, residues 85-181)
Setting: 8-mer, flanks averaged, mean of 2 arrays, mostly near background
Target sequence (chain): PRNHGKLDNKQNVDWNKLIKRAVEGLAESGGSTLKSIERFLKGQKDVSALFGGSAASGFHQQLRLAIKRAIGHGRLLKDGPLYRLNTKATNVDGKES
Oligonucleotide = CAATACGA; value = 0.00559
Oligonucleotide = CACGTATG; value = -0.0735
Oligonucleotide = CCAGACGG; value = 0.0817
Oligonucleotide = ACTAAGAC; value = 0.0296
Oligonucleotide = CGTAGTAA; value = -0.209
Oligonucleotide = CGAGTGCC; value = 0.0322
Oligonucleotide = ATAATGCA; value = -0.188
Oligonucleotide = AAGCTTTC; value = 0.0931
Oligonucleotide = CAATCTTA; value = 0.00492
Oligonucleotide = CATGAAGC; value = 0.0644
Oligonucleotide = GAGCGGGA; value = 0.112
Oligonucleotide = CGTTTCAA; value = -0.0151
Oligonucleotide = ACTCAGAG; value = 0.219
Oligonucleotide = ACGTATGC; value = -0.138
Oligonucleotide = CGTGACGC; value = 0.00356
Oligonucleotide = CCTATTGA; value = -0.0525
Oligonucleotide = TCTCGGAA; value = 0.0728
Oligonucleotide = GTCGGGGA; value = 0.0706

Repeated from above (study 3):
Variant = N85L; value = 83.5%
Variant = D153G; value = 17.5%
Variant = P146W; value = 4.45%
Variant = S80K; value = 37.9%
Variant = Q10M; value = 73.3%
Variant = T154N; value = -11.9%
Variant = G148R; value = 55%
Variant = K116D; value = -3.69%
Variant = L29Y; value = 28.1%
Variant = L169W; value = 1.45%
Variant = S80W; value = 20.2%
Variant = A84G; value = 78.8%
Variant = Q10F; value = 55.6%
Variant = E147R; value = 73.6%
